Assay results pooled from the literature.
Parts stem from different laboratories: compare values within a part only. Substitutions count along the parent as printed.

Series 1 — technique: protein-binding microarray; molecule type: double-stranded DNA, one strand shown; matrix: in vitro; concentration: 250 nM; notes: 60-bp whole probe; with: salmon DNA 0.4 mg/ml; relative to: random background probes; direction: higher = stronger binding; shared flanks, not repeated: GCCTAGCAC … GTCTTGATTCGCTTGACGCTGCTG
Target: Interferon regulatory factor 5, full length, phosphomimetic (IRF5, Homo sapiens, UniProt Q13568-2, residues 1-514, K96S/S451D/S453D/S456D/S462D)
Oligonucleotide	log fluorescence [z-score]
TTAGGTCTGCTTATCCTTTAGTGCTAG	-0.179
GACGGTCTCCTAGTGCTGACGTGCTAG	-0.473
GAAGGTCTCGGTTTCGGGACGTGCTAG	3.3
GACGGTATCGGTTTCGTGACGTGCTAG	6.95
GACGGTATCGGGTTACGGGACGTGCTA	2.87
TCACATTTTCGTTTTTAACTGTGCTAG	5.35
GACGGTTTCGGGTATCGAGACGTGCTA	8.17
TTACGTCTCGGTCTCGGTTAGTGCTAG	1.7
TTAGGTCTCGGTCTCGGTTGGTGCTAG	0.79

Series 2 — target: CCNB1, cyclin fold, Cln2 fusion (human); technique: yeast growth competition, sequencing; matrix: yeast; notes: weak parent motif; relative to: not given; direction: higher = stronger binding
Parent: SCAPER docking peptide (human); SNARRSLNFGGST
Change	normalised enrichment score
G10F	0.114
S1Q	0.432
T13F	0.451
T13Y	0.0824

Series 3 — technique: universal PBM; molecule type: double-stranded DNA, one strand shown; matrix: in vitro; concentration: not given; direction: higher = stronger binding
Target: Sal-like protein 4, full length isoform B (SALL4, Homo sapiens, UniProt Q9UJQ4-2, residues 1-616)
Notes: 8-mer, flanks averaged, mean of replicates
Oligonucleotide	E-score
GAGGCGTA	0.0493
GTGCGGAA	-0.018
CCCGCGAG	-0.207
ACTGTAAT	0.238
CGCCTTTA	0.00806

Mixed results
Molecule	target	test	system	setting	scale	quantity	result
PhoQ, residues 284 288 289 292 302 303 SLGVVW	PhoP, residues 12 14 15 18 19 NQFFI (Escherichia coli, UniProt P23836)	Sort-seq, item: YFP reporter	E. coli	PhoQ-PhoP variant library, with: 10 µM Mg2+	relative to: high Mg2+ state, higher = stronger signaling	fold induction	22.3

For quick reference, copied from above (series 1):
Oligonucleotide	log fluorescence [z-score]
GACGGTATCGGGTTACGGGACGTGCTA	2.87
GACGGTATCGGTTTCGTGACGTGCTAG	6.95
TTAGGTCTGCTTATCCTTTAGTGCTAG	-0.179
